Results of several laboratories.
Parts stem from different laboratories: compare values within a part only.

Series 1 — technique: protein-binding microarray; form: double-stranded DNA, one strand shown; matrix: in vitro; concentration: not given; direction: higher = stronger binding
Target: Hepatocyte nuclear factor 3-beta, forkhead domain (FOXA2, Homo sapiens, UniProt Q9Y261, residues 142-269)
Notes: k-mer, scored over probes, only values ≥0.25
Construct (chain): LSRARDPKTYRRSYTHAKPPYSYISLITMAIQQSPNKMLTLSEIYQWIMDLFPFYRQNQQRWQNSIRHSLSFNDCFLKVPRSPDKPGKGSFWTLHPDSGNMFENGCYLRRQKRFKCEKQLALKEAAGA
| Sequence | E-score |
| --- | --- |
| ATATAAAG | 0.258 |
| ATGACATA | 0.296 |
| TATAAGCA | 0.311 |
| AACGTAAC | 0.285 |
| GTAGATAA | 0.336 |
| ATTGTATC | 0.283 |
| ACACAACA | 0.34 |
| ATATGTCG | 0.302 |
| ATCGTACA | 0.276 |
| AATATCAA | 0.261 |
| TATTAGCA | 0.254 |
| TATTGGCA | 0.25 |
| GATATACA | 0.346 |
| TACACATA | 0.408 |
| CACGTATA | 0.261 |
| CTATATGC | 0.318 |
| AATAATAT | 0.317 |
| AGTGTACA | 0.328 |

Series 2 — technique: RNA Bind-n-Seq; form: RNA; matrix: in vitro; concentration: 200 nM; notes: whole 134-nt RNA, ends assumed; added: 150 mM KCl; baseline: input library; direction: higher = stronger binding
Target: Ras GTPase-activating protein-binding protein 1, full length (G3BP1, Homo sapiens, UniProt Q13283)
UniProt Q13283, sequence (whole entry, looked up): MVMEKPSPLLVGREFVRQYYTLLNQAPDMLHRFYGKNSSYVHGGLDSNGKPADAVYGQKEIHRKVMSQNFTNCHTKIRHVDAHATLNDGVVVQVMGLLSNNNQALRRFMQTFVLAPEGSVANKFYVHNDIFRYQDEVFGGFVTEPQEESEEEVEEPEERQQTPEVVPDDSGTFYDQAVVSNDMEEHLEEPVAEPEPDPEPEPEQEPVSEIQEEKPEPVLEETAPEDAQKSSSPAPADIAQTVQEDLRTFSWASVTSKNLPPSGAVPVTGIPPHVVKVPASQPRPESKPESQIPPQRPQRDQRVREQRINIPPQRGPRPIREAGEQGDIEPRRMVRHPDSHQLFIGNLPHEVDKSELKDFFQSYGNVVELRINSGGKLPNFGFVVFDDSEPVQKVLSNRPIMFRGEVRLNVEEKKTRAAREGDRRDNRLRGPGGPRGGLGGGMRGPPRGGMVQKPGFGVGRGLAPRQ
All sequences stand within: GGGAGUUCUACAGUCCGACGAUC … UGGAAUUCUCGGGUGUCAAGG
| Sequence | log2 enrichment |
| --- | --- |
| CAAGUCCUGUGCUACACAUCGUAUGUACCGAAUCGGAAAAAGGUUUUUUUGGUGGAAAGUAUUAUGUUACGCCGUUCGGAUCUGCACUUC | -1.28 |
| GUCCUGUGCUACACAUCGUAUGUACCGAAUCGGUUUUUUGGUUUUUUGGUUUUUUGGGAAAGUAUUAUGUUACGCCGUUCGGAUCUGCAC | -1.3 |
| UCAAGUCCUGUGCUACACAUCGUAUGUACCGAAUCGGGAAAGGGAAAGGGUGGGAAAGUAUUAUGUUACGCCGUUCGGAUCUGCACUUCC | 1.09 |
| AAGUCCUGUGCUACACAUCGUAUGUACCGAAUCAAAUUUUUAAACCCAAAUUUAAAAAAGUAUUAUGUUACGCCGUUCGGAUCUGCACUU | -0.769 |
| AAGUCCUGUGCUACACAUCGUAUGUACCGAAUCGGUUUGGUUUUUUUGGAAAAAGGAAAGUAUUAUGUUACGCCGUUCGGAUCUGCACUU | -1.23 |
| AAGUCCUGUGCUACACAUCGUAUGUACCGAAUCGGAAAAGGGAAAAGGGAAAAGGGAAAGUAUUAUGUUACGCCGUUCGGAUCUGCACUU | -0.837 |
| CCUGUGCUACACAUCGUAUGUACCGAAUCGGGGUUUUUGGGGUUUUUUUGGGGUUUGGGGAAAGUAUUAUGUUACGCCGUUCGGAUCUGC | 0.168 |
| ACCAUGCAGGUGGGCAUCUUUGGGAAGUGGGGCAAGGGGGGGAUAGGGAGGGGGGUAACACUUUGGGAACAGGUGGUCCCAGGUCAUUUC | 1.35 |
| CUCAAGUCCUGUGCUACACAUCGUAUGUACCGAAUCGGAGGUUUUUGGAAAGGAAAGUAUUAUGUUACGCCGUUCGGAUCUGCACUUCCA | -0.619 |
| UUCUCUAAGAGGAACUCCGGCGCGUCAGAGUAACAGAAGCGAGAGCACAGACAGUCUUGGGGGCUUGUCUCCCUCUGAAGUCACAGCCAU | -0.0282 |
| UUGCGGCAGCCGCCCCCUUCUGCGCGGUCACGCCGAGCCAGCGCCUGGGCCUGGAACCGGGCCGUAGCCCCCCCAGUUUCGCCCACCACC | 0.396 |
| ACCAUGCAGGUGGGCAACUUUGGGAAGUGGGGCAAGGGGGGGAUAGGGAGGGGGGUAACACUUUGGGAACAGGUGGUCCCAGGUCGUUUC | 1.28 |
| UCCUGUGCUACACAUCGUAUGUACCGAAUCGGGGUUUUUGGGGAAAAAAAGGGGUGGGGAAAGUAUUAUGUUACGCCGUUCGGAUCUGCA | 0.764 |
| AGUCCUGUGCUACACAUCGUAUGUACCGAAUCGGAAAAAAAGGAAAGGUUUUUUUGGAAAGUAUUAUGUUACGCCGUUCGGAUCUGCACU | -1.74 |

Series 3 — technique: competition protein-binding microarray; form: double-stranded DNA, one strand shown; matrix: in vitro; concentration: 2 µM; added: Pho4 competitor, 0.05 µM; direction: higher = stronger binding; all sequences stand within: … GTCTTGATTCGCTTGACGCTGCTG
Target: Centromere-binding protein 1, full length, His-tagged (CBF1, Saccharomyces cerevisiae, UniProt P17106, residues 1-351)
UniProt P17106, sequence (whole entry, looked up): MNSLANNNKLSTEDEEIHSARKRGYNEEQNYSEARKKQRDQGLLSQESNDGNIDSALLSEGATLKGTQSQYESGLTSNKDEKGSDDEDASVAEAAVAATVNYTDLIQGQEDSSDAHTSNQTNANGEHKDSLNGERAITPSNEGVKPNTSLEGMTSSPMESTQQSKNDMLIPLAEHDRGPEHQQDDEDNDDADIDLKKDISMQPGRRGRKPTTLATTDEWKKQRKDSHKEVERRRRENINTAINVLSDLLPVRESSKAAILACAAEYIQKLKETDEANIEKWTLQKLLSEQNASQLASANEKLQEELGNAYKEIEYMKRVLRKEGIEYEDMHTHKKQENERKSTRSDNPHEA
Notes: whole 60-bp probe, lowest competitor level
| Sequence | fluorescence intensity [a.u.] |
| --- | --- |
| CTAACGAAGGTTTTTCACGTGGTGTACAAGCCAAGT | 833 |
| ATGGCTATACCGAGTCACGTTTAGGTAATTTGTTTG | 780 |
| TATCACCCTTTAGGAGCCGTGATGGAGAAGACTACC | 76.3 |
| AACCGGTCCCTTCTGTGCGTGGTCGGACCTGCTACA | 51.6 |
| AAATTACTAAGTTGAAGAGTGGGTGACGCCGTATGA | 67.2 |
| GTAGCAGATTCCTGGAACGTGCTTTCTCTCGAGGTA | 112 |
| CGCCGTCCTGTAATCCATGTGGCAAGTCCACCGTAA | 56 |
| GAGAGAATGAACCATCACGTGTGAACCCAAAAGGCC | 2250 |
| ATGGGCCGATAGTACCACCTGATCTTGAGTTGTTTT | 242 |
| CCCTTGATTTCTGCCTGTGTGATATTAAATAATTGT | 111 |
| AAAGCGGTAATTTGTCACTTGACTTCACATATCTAT | 211 |
| CCAATGTACTTAAAGCACGATATCGACGCTCCTAAG | 72.9 |
| TCACCCTCTCCGACTCACGTGGACCTTGGCGCGGCC | 846 |
| CGTCCTAGTGATTGCGAAGTGGGTGCCATGAGGAAG | 81 |

Series 4 — organism: Saccharomyces cerevisiae; read-out: pheromone growth arrest; technique: yeast competitive growth sequencing; form: peptide; strain: no Cln2 overexpression; notes: peptide tiling library; direction: direction not given
| Sequence | enrichment score |
| --- | --- |
| PPTFLSTGEIHAFLSS | 0.014 |
| NNIRKALSFDNRGEEH | -0.145 |
| DWDTVERQEEEAPSWD | 0.747 |
| ARKRLELGNLGNPQ | -0.413 |
| VSRNLRSSLKSSLHTL | 0.0975 |
| SCCKRKLVVGNGPEGP | -0.443 |
| TTTTSPRTPPPLTVQD | 0.399 |
| NFETPEAETPIRSPFK | 0.387 |
| GAEELEDLVHFSVSEL | 0.48 |

A few entries again (series 1):
| Sequence | E-score |
| --- | --- |
| AATATCAA | 0.261 |
| TATTAGCA | 0.254 |
| TATTGGCA | 0.25 |
| GATATACA | 0.346 |
| TACACATA | 0.408 |
| CACGTATA | 0.261 |
| CTATATGC | 0.318 |
| AATAATAT | 0.317 |
| AGTGTACA | 0.328 |
